{"data": "Measured values from different studies", "note": "A part holds a random share of what one study measured. Values joined by “and” are separate records of one study, mostly repeats; a detail may differ."}
{"data": "Block 1", "cell line": "Gaucher fibroblasts L444P/L444P", "method": "4-MUG hydrolysis, cell lysate", "concentration": "10 µM", "reference": "DMSO"}
{"Structure (SMILES)": "Ic1ccc(Nc2nc(NCCN3CCOCC3)nc(NC3CCCCC3)n2)cc1", "GCase activity": "101% and 91% and 89.3% and 91.4% and 87.8%"}
{"Structure (SMILES)": "Ic1ccc(Nc2nc(N3CCOCC3)nc(N3CCOCC3)n2)cc1", "GCase activity": "52.2% and 197% and 182% and 202%"}
{"Structure (SMILES)": "Ic1ccc(Nc2nc(NCCN3CCOCC3)nc(N3CCNCC3)n2)cc1", "GCase activity": "9.16% and 7.81% and 5.72% and 7.88% and 6.38% and 3.48%"}
{"Structure (SMILES)": "Ic1ccc(Nc2nc(NCCN3CCOCC3)nc(N3CCSCC3)n2)cc1", "GCase activity": "92.5% and 98.9% and 104%"}
{"Structure (SMILES)": "Ic1ccc(Nc2nc(NCCN3CCOCC3)nc(N3CCCC3)n2)cc1", "GCase activity": "104% and 101% and 91.9% and 86.6% and 93.7%"}
{"Structure (SMILES)": "CCOc1ccc2nc(Sc3nc(NCCN4CCOCC4)nc(Nc4ccc(I)cc4)n3)sc2c1", "GCase activity": "112% and 119% and 131% and 108%"}
{"Structure (SMILES)": "Ic1ccc(Nc2nc(NCCN3CCOCC3)nc(N3CCCCC3)n2)cc1", "GCase activity": "91.6% and 88% and 87.6% and 89% and 90.7%"}
{"Structure (SMILES)": "Cc1ccc(Nc2nc(NCCN3CCOCC3)nc(N3CCOCC3)n2)cc1", "GCase activity": "167% and 150% and 141% and 170% and 165%"}
{"data": "Block 2", "SMILES": "C[C@@H]1CN(c2ccc(-c3cc(C(=O)NCCOCCOCCOCCOCCNC(=O)Cn4cc(-c5[nH]cc(C(=O)N[C@@H](CC(N)=O)c6ccc(F)c(Cl)c6)c5-c5ccc(Cl)cc5F)cn4)ccc3F)cc2NC(=O)c2c[nH]c(=O)cc2C(F)(F)F)C[C@H](C)N1C", "target": "WD repeat-containing protein 5 (WDR5, Homo sapiens, UniProt P61964)", "observed": "thermal unfolding", "method": "differential scanning fluorimetry", "concentration": "5.5 µM", "direction": "higher = more unfolded"}
{"temperature": "93.21 °C", "SYPRO Orange fluorescence [a.u.]": 40000}
{"temperature": "41 °C", "SYPRO Orange fluorescence [a.u.]": 14200}
{"temperature": "76.41 °C", "SYPRO Orange fluorescence [a.u.]": 13600}
{"temperature": "84.41 °C", "SYPRO Orange fluorescence [a.u.]": 37900}
{"temperature": "80.61 °C", "SYPRO Orange fluorescence [a.u.]": 25300}
{"temperature": "33.8 °C", "SYPRO Orange fluorescence [a.u.]": 14400}
{"temperature": "85.81 °C", "SYPRO Orange fluorescence [a.u.]": 41100}
{"temperature": "32.6 °C", "SYPRO Orange fluorescence [a.u.]": 14400}
{"data": "Block 3", "SMILES": "CCN1/C(=C/C=C2\\CCCC(/C=C/C3=[N+](CC)c4ccccc4C3(C)C)=C2NCCCCCCCCN2CCC(Nc3nc4ccccc4n3Cc3ccc(F)cc3)CC2)C(C)(C)c2ccccc21", "cell line": "U-87 MG", "concentration": "concentration not given", "reference": "DMSO"}
{"measured": "IRAG1 mRNA", "log2 fold change": -3.97}
{"measured": "ADD3 mRNA", "log2 fold change": -1.05}
{"measured": "MAP10 mRNA", "log2 fold change": -1.07}
{"measured": "PPIL6 mRNA", "log2 fold change": 1.96}
{"measured": "USP3 mRNA", "log2 fold change": 1.07}
{"measured": "PCDHGC5 mRNA", "log2 fold change": -1.85}
{"measured": "KLF6 mRNA", "log2 fold change": -0.906}
{"measured": "CCN3 mRNA", "log2 fold change": -1.02}
{"measured": "HSPBAP1 mRNA", "log2 fold change": 1.32}
{"measured": "SUMO3 mRNA", "log2 fold change": -0.82}
{"measured": "ZNF460 mRNA", "log2 fold change": 2.48}
{"measured": "SNX9 mRNA", "log2 fold change": 0.944}
{"measured": "UST mRNA", "log2 fold change": 1.32}
{"measured": "REXO5 mRNA", "log2 fold change": -1.43}
{"measured": "MECOM mRNA", "log2 fold change": -1.38}
{"measured": "IQCB1 mRNA", "log2 fold change": 0.907}
{"data": "Block 4", "cell line": "MDA-MB-468", "observed": "cell viability", "method": "CellCounting-Lite", "concentration": "24.69 nM", "temperature": "37 °C", "direction": "higher = more viable cells"}
{"Structure (SMILES)": "CCn1cnc2c(NCc3nc4ccc(F)c(F)c4[nH]3)nc(N3CCn4ncnc4C3)nc21", "luminescence signal": "320000 a.u. and 329000 a.u. and 359000 a.u."}
{"Structure (SMILES)": "CCn1cnc2c(NCc3nc4cc(Cl)c(Cl)cc4[nH]3)nc(N3CCN(C(=O)[C@H](C)NC(C)=O)CC3)nc21", "luminescence signal": "218000 a.u. and 221000 a.u. and 257000 a.u."}
{"Structure (SMILES)": "CC(=O)N1CCN(c2nc(NCc3nc4cc(Cl)c(Cl)cc4[nH]3)c3ncn(C)c3n2)CC1", "luminescence signal": "465000 a.u. and 375000 a.u. and 424000 a.u."}
{"Structure (SMILES)": "CC(=O)N1CCN(c2nc(NCc3nc4cc(Cl)c(Cl)cc4[nH]3)c3ncn(-c4cnn(C)c4)c3n2)CC1", "luminescence signal": "289000 a.u. and 333000 a.u. and 361000 a.u."}
{"Structure (SMILES)": "CCn1cnc2c(NCc3nc4cc(Cl)c(Cl)cc4[nH]3)nc(N3CCN(S(C)(=O)=O)CC3)nc21", "luminescence signal": "223000 a.u. and 183000 a.u. and 232000 a.u."}
{"Structure (SMILES)": "CCn1cnc2c(NCc3nc4cc(Cl)c(Cl)cc4[nH]3)nc(N3CCN(C(=O)c4ccccc4)CC3)nc21", "luminescence signal": "258000 a.u. and 262000 a.u. and 269000 a.u."}
{"Structure (SMILES)": "Cn1cc(-n2cnc3c(NCc4nc5cc(Cl)c(Cl)cc5[nH]4)nc(N4CCNCC4)nc32)cn1", "luminescence signal": "204000 a.u. and 230000 a.u. and 217000 a.u."}
{"Structure (SMILES)": "CCCCOc1nc(NCc2nc3cc(Cl)c(Cl)cc3[nH]2)c2ncn(CC)c2n1", "luminescence signal": "500000 a.u. and 450000 a.u. and 398000 a.u."}
{"Structure (SMILES)": "CCn1cnc2c(NCc3nc4cc(Cl)c(Cl)cc4[nH]3)nc(N3CCN(c4ccccn4)CC3)nc21", "luminescence signal": "460000 a.u. and 435000 a.u. and 515000 a.u."}
{"data": "Block 5", "Compound": "Cc1ccc(O)c(C)c1-c1cnc2[nH]c(-c3cnc(N4CCC5(CC4)CC(N4CCN(c6ccc(N[C@H]7CCC(=O)N(C)C7=O)cc6F)CC4)CO5)nc3)cc2c1C#N (single isomer, unassigned)", "PKMYT1": "Membrane-associated tyrosine- and threonine-specific cdc2-inhibitory kinase (PKMYT1, Homo sapiens, UniProt Q99640)", "sequence of UniProt Q99640 (whole entry, looked up)": "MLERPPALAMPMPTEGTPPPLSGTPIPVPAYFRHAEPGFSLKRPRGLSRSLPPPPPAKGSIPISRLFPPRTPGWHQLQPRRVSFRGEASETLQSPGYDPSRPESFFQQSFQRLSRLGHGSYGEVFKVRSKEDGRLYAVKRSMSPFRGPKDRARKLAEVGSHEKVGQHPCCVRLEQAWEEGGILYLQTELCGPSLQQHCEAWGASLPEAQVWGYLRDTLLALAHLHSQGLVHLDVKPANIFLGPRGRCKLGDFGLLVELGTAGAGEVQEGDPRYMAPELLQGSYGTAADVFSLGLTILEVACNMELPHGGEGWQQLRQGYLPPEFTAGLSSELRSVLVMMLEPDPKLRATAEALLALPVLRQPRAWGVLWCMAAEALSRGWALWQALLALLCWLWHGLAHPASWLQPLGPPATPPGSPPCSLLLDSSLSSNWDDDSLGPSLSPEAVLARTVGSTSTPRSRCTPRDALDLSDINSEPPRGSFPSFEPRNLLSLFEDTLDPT"}
{"target or system": "PKMYT1", "assay": "kinase activity, inhibitor", "conditions": "5e-05 µM", "inhibition": "-7.57% and 0.82%"}
{"target or system": "PKMYT1", "assay": "enzyme activity, inhibitor", "conditions": "1.37 nM", "inhibition": "8.93% and 12%"}
{"target or system": "HCC1569", "assay": "automated capillary immunoblot, measured: CDK1 phospho-Thr14", "conditions": "333.33 nM, 24 h", "inhibition": "77.8%"}
{"target or system": "HCC1569", "assay": "automated capillary immunoblot, measured: CDK1 phospho-Thr14", "conditions": "12.35 nM, 24 h", "inhibition": "24.9%"}
{"target or system": "PKMYT1", "assay": "enzyme activity, inhibitor", "conditions": "4.12 nM", "inhibition": "27.6% and 31.3%"}
{"target or system": "HCC1569", "assay": "automated capillary immunoblot, measured: CDK1 phospho-Thr14", "conditions": "1000 nM, 24 h", "inhibition": "92.6%"}
{"data": "Block 6", "Structure (SMILES)": "COc1ccc2c(c1)OC(O)(C(=O)O)C(=O)N2Cc1ccccc1 (stereo not shown)"}
{"organism": "Oryza sativa", "assay": "fresh weight", "conditions": "soil surface spray, 150 g ai/ha, 21 days, pre-emergence crop safety", "inhibition": "15% and 11.5% and 12.5%"}
{"organism": "Arabidopsis thaliana", "assay": "root length", "test system": "Col-0, seedlings", "conditions": "100 µg/mL", "scale": "reference: water control", "inhibition": "81%"}
{"organism": "Zea mays", "assay": "fresh weight", "conditions": "soil surface spray, 150 g ai/ha, 21 days, pre-emergence crop safety", "inhibition": "21.1% and 18.7% and 20.2%"}
{"organism": "Alopecurus aequalis", "assay": "fresh weight", "conditions": "150 g ai/ha, pre-emergence treatment", "inhibition": "79.2% and 76.4% and 79.3%"}
{"organism": "Arabidopsis thaliana", "assay": "hypocotyl length", "test system": "Col-0, seedlings", "conditions": "6.25 µg/mL", "inhibition": "9.18%"}
{"organism": "Arabidopsis thaliana", "assay": "root length", "test system": "Col-0, seedlings", "conditions": "100 µg/mL", "inhibition": "81%"}
{"organism": "Arabidopsis thaliana", "assay": "root length", "test system": "Col-0", "conditions": "6.25 µg/mL, 7 days, seed germination, dark", "inhibition": "9.9%"}
{"organism": "Echinochloa crus-galli", "assay": "fresh weight", "conditions": "150 g ai/ha, post-emergence treatment", "inhibition": "48.5% and 42.9% and 50.2%"}
{"organism": "Arabidopsis thaliana", "assay": "root length", "test system": "Col-0", "conditions": "100 µg/mL, 7 days, seed germination, dark", "inhibition": "81%"}
{"organism": "Arabidopsis thaliana", "assay": "root length", "test system": "Col-0", "conditions": "25.0 µg/mL, 7 days, seed germination, dark", "inhibition": "20.5%"}
{"organism": "Abutilon theophrasti", "assay": "fresh weight", "conditions": "150 g ai/ha, pre-emergence treatment", "inhibition": "50.8% and 56.2% and 54.1%"}
{"organism": "Arabidopsis thaliana", "assay": "root length", "test system": "Col-0, seedlings", "conditions": "12.5 µg/mL", "inhibition": "10.2%"}
{"organism": "Arabidopsis thaliana", "assay": "hypocotyl length", "test system": "Col-0", "conditions": "3.125 µg/mL, 7 days, seed germination, dark", "inhibition": "5.9%"}
{"organism": "Alopecurus japonicus", "assay": "fresh weight", "conditions": "150 g ai/ha, pre-emergence treatment", "inhibition": "49.2% and 47.5% and 47.3%"}
{"data": "Mixed results"}
{"SMILES": "Cc1ncsc1-c1ccc(C(CO)NC(=O)C2CC(O)CN2C(=O)C(C(C)C)n2cc(-c3ccc(COc4c(-c5c(C)c(F)cc6[nH]ncc56)c(C5CC5)cc5c(N6CC7CC6CN7)nc(OC6CCOCC6)nc45)cc3)nn2)cc1 (stereo not shown)", "test system": "KP-4 xenograft, mouse", "conditions": "30 mg/kg once weekly, day 14", "measurement": "tumour volume", "value": "405 mm3 and 441 mm3 and 367 mm3 and 283 mm3 and 366 mm3"}
{"SMILES": "COc1cc(C(=O)OCCCN2CCCN(CCCOC(=O)c3cc(OC)c(OC)c(OCc4ccc([N+](=O)[O-])cc4)c3)CC2)cc(OC)c1OC", "test system": "female mouse, formalin pain", "conditions": "intrathecal, 100 nmol, 0 to 5 min", "measurement": "licking duration", "value": "146 s and 184 s and 153 s"}
{"SMILES": "Cc1ncsc1-c1ccc(C(CO)NC(=O)C2CC(O)CN2C(=O)C(NC(=O)c2ccc(COc3c(-c4c(C)c(F)cc5[nH]ncc45)c(C4CC4)cc4c(N5CC6CC5CN6)nc(OC5CCOCC5)nc34)cc2)C(C)C)cc1 (stereo not shown)", "target or system": "AsPC-1", "assay": "In-Cell ELISA, measured: phospho-ERK1/2", "measurement": "IC50", "value": "108 nM and 72.7 nM and 64.4 nM"}
{"SMILES": "Cc1nc(C)c(C=[N+]([O-])C(C)(C)C)nc1C", "assay": "footprint test", "test system": "MPTP-induced Parkinson's disease mouse model", "conditions": "30 mg/kg", "measurement": "stride length", "value": "6.76 cm and 7 cm and 6.91 cm and 6.12 cm and 6.97 cm and 5.53 cm and 6.51 cm and 5.59 cm"}
{"SMILES": "Cc1ncsc1-c1ccc(C2(NC(=O)C3CC(O)CN3C(=O)C(NC(=O)c3ccc(COc4c(-c5c(C)c(F)cc6[nH]ncc56)c(C5CC5)cc5c(N6CC7CC6CN7)nc(OC6CCOCC6)nc45)cc3)C(C)(C)C)CC2)cc1 (stereo not shown)", "target or system": "AsPC-1", "assay": "in-cell ELISA", "conditions": "10 µM, individual replicates", "measurement": "phospho-ERK1/2 level", "value": "11.3% and 10.5% and 11.5% and 13.9% and 12.3% and 13.1%"}
{"SMILES": "Cc1ncsc1-c1ccc(C2(NC(=O)C3CC(O)CN3C(=O)C(NC(=O)c3ccc(COc4c(-c5c(C)c(F)cc6[nH]ncc56)c(C5CC5)cc5c(N6CC7CC6CN7)nc(OC6CCOCC6)nc45)cc3)C(C)C)CC2)cc1 (stereo not shown)", "target or system": "AsPC-1", "assay": "cell growth, CellTiter-Glo", "conditions": "overall of experiments", "measurement": "IC50", "value": "307 nM"}
{"note": "Repeated from above (block 3):"}
{"measured": "PPIL6 mRNA", "log2 fold change": 1.96}
{"measured": "USP3 mRNA", "log2 fold change": 1.07}
{"measured": "PCDHGC5 mRNA", "log2 fold change": -1.85}
{"measured": "KLF6 mRNA", "log2 fold change": -0.906}
{"measured": "CCN3 mRNA", "log2 fold change": -1.02}
